Assay results from different studies.
Every numbered part comes from another study and shows a few of its results, in no order. Changes are numbered by the printed parent chain.

Set 1 — method: DHFR PCA, deep sequencing; medium: yeast; added: (+)-ABA 0.39 µM; relative to: wild-type fitted maximum; reading: higher = stronger binding
Target: ABI1, truncated, D143A, DHFR fusion (Arabidopsis thaliana)
Setting: methotrexate growth selection, single substitutions
Starting sequence: PYL1, truncated, DHFR fusion (Arabidopsis thaliana); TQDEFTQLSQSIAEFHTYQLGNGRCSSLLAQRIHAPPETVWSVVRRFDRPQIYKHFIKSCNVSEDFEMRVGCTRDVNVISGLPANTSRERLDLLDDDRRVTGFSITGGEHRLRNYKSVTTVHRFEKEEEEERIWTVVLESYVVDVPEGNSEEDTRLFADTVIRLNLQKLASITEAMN
Variant | relative binding score [%]
A13Q | 50.1
S9M | 36.1
I57D | -14.2
L156E | -0.0821
S80W | 58.4
S80K | -7.74
Q10M | 25.6
N85L | 67.7
I162H | -0.356
M68G | 3.19
T1H | 42.4
Q19T | 47.4
S117P | 12.8
C72L | -1.35

Set 2 — method: RNA Bind-n-Seq; molecule type: RNA; medium: in vitro; tested at: 365 nM; relative to: no-protein control; reading: higher = stronger binding
Target: RNA binding protein fox-1 homolog 2, RRM domain, GST-SBP tag (RBFOX2, Homo sapiens, UniProt O43251-10, residues 100-194)
Setting: natural RNA segment, single round, ends assumed
Constant ends, left off below: GGGAGUUCUACAGUCCGACGAUC … UGGAAUUCUCGGGUGCCAA
Target sequence (chain): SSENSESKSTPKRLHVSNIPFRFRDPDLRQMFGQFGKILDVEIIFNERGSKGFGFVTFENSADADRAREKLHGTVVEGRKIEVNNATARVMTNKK
Strand | RBNS enrichment (R)
GCACUCCUUUCAAGGGUGUUGGCAAGGCCCUCAUUGAUACUCUCCUGGAUGGAUAUGAGACAGCCCGCUAUGGGACAGGGGUCUUUGGCCAGAGUGAGUACUUACGAUAU | 0.732
CAUUUCAUGCAAUGACAAAGUGCUCAGUAGUGGAAGGCAGGCUGUGACCAGUCUGCCUGCUCCUUACUAUAAUUGUGAGGAUUUGUUACUGGAACAGUACAUGGAGGCCU | 0.479
CUGUUGUAGUUACAGGUGCUCUUACUGGGCUCUGCUCUAGUGUUCCACUUCCUAGAAGUUUAUCCAGUGAACUAGACACUAAGCCAAGCACAUGUCCAGGAGGGUUGCUG | 0.24
UUGCAGGGCCAUGCAGGCCGGACUCGUUGCCUUAAUUCAAGAACCUGUGUCUAUGUGUAUGUACACAUACUUCUGUCAGAGAGAGAGAGACACCCACCAUGGGUCUUUGA | 0.697
CAGAGAUAAGCAAAACACAGUUCCUCUCGUGCAGAAGGUUAGAAUCUAUUUUUUUUUUUGACAGAGUCUUGCUCUGUCACCCAGGCUGGCGUACAGUGGUACGAUCUCAG | 0.439
UCUGAAGUGCUGGGAGCAUAGGAAGAUUGACAUUCUGUGUGACUUGUGAGGCUCAGAUGCUGAUACCAGUAACAUUCAAAAUUAACUUCACGCAUUGAAUACAUUUAAAC | 2.67
UCUGGACAGCUCAUUCAAGUGGAUUUUUAACUAUUAGGGAUCACUGCGAAGUUUCGUUGGAUUUUAUUUUAUGUCCUUCAGAGCACCCUCCCCCACCCACUAGGGUCCAG | 0.28
CAUCCCAGUGGCCGGGGAGUCACCCCCUCACGCAGAGACCUUGCCUGUGCCUCAGAUGGCUUGCUGCCAGCUGUCAGAUACACAUAGAAGCUUAUAUCUCUCAAAUUAAU | 0.487
CCUCUCUCUCUCUGUCUCUCUCUGGUCUCUGUCUCUCUCUCUUUUUUUACCAGAACCCUUCUGCAAUGCCUCCUGCAUAGGUCCCAAGAUGUGUAGCGAUCCAUCCCUGG | 1.75
UGCCAUUAACAACAGCAGCCUAGAACUGACGCUUUAGUGGCCCGUCUGCAGAGCCAAAUCUUGCUCUUUCCAGCACAAUCGGGCAGCUCACGGAUUAGGAAUUAACAGCC | 0.324
UCUUGCCAACAACUGCAGAUGGUAACAGCUAUCAGUAUGCCUUCAGUCAGUCUUCCUUGAAUCUACCCAUCUCCUUAUACACACACUCACACACUCACACUCUCUAUGUC | 1.23
UCUUUAAUCUCUUGUUAAAUUACCCCUUUGAUAUUGGUGUCUGUCAGCGUUGGGGCUUCUUAGUAUCAGGACCUCUCUGAGGUAAGGACUUUCCUGUGUGGCCACAGAAA | 0.455

Set 3 — method: RNA Bind-n-Seq; molecule type: RNA; medium: in vitro; tested at: 200 nM; setting: whole 134-nt RNA, ends assumed; added: 150 mM LiCl; relative to: input library; reading: higher = stronger binding; each molecule: 7-deaza-guanosine replaces G
Target: Ras GTPase-activating protein-binding protein 1, full length (G3BP1, Homo sapiens, UniProt Q13283)
Sequence of UniProt Q13283 (whole entry, looked up): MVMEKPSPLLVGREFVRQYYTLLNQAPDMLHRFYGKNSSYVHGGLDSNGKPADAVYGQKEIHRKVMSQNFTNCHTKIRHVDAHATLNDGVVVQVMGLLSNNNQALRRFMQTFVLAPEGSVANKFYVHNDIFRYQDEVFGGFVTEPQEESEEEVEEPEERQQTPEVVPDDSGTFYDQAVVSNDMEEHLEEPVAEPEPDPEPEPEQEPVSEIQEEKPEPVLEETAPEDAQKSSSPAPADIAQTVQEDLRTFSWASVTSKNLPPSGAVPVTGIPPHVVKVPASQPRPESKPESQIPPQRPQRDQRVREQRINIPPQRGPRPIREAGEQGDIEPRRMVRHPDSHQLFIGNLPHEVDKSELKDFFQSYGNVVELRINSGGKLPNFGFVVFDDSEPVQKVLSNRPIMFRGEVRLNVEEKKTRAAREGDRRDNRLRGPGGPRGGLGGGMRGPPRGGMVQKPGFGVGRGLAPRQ
Constant ends, left off below: GGGAGUUCUACAGUCCGACGAUC … UGGAAUUCUCGGGUGUCAAGG
Strand | log2 enrichment
UGGGAGGUGGAUUUUGUUUAUUUUUUUAGCUCAUUUCCAGGGGUGGGAAUUUUUUUCUAAUAUGUGUCAUGAAUAAAGUUGUUUUUGAAA | -0.434
AAGUCCUGUGCUACACAUCGUAUGUACCGAAUCGGAAAAAAAGGAAAAAAAGGUGGAAAGUAUUAUGUUACGCCGUUCGGAUCUGCACUU | -1.36
UCAAGUCCUGUGCUACACAUCGUAUGUACCGAAUCGGGGAGGGGUGGGGUGGGGAAAGUAUUAUGUUACGCCGUUCGGAUCUGCACUUCC | -0.0988
CAAGUCCUGUGCUACACAUCGUAUGUACCGAAUCGGGCCCGGGGCCCGGGCCCGGAAAGUAUUAUGUUACGCCGUUCGGAUCUGCACUUC | -1.49
GUCCUGUGCUACACAUCGUAUGUACCGAAUCGGGCCCCCGGGGCCCCCGGCCCCCGGGGAAAGUAUUAUGUUACGCCGUUCGGAUCUGCA | -1.83
UGGCCCUGGGGGCAUGCGGGGAGGAAGAGGUGGCCUCAUGGAUCGUGGUGGUCCCGGUGGAAUGUUCAGAGGUGGCCGUGGUGGAGACAG | -0.0545
ACCAUGCAGGUGGGCAUCUUUGGGAAGUGGGGCGAGGGGGGGAUAGGGAGGGGGGUAACACUUUGGGAACAGGUGGUCCCAGGUCGUUUC | 0.134
CUGUGCUACACAUCGUAUGUACCGAAUCGGGGUUUUUUUGGGGAAAAAAAGGGGUUUGGGGAAAGUAUUAUGUUACGCCGUUCGGAUCUG | -1.63
CCUCAAGUCCUGUGCUACACAUCGUAUGUACCGAAUCGGGAGGGGAGGGGAGGAAAGUAUUAUGUUACGCCGUUCGGAUCUGCACUUCCA | -0.0431
UAACUUUAGAGGAGGAUCUGAUGGAUAUGGCAGUGGACGUGGAUUUGGGGAUGGCUAUAAUGGGUAUGGAGGAGGACCUUGAGGUGGCAA | -0.0845
UGGGAGGUGGAUUUUGUUUAUUUUUUUAGCUAAUUUCCAGGGGUGGGAAUUUUUUUUUAAUAUGUGUCAUGAAUAAAGUUGUUUUUGAAA | -0.19

Set 4 — method: protein binding microarray; molecule type: double-stranded DNA, one strand shown; medium: in vitro; tested at: not given; relative to: not given; reading: higher = stronger binding
Target: Histone acetyltransferase KAT6A, winged helix 2, GST fusion (KAT6A, Homo sapiens, UniProt Q92794, residues 85-181)
Setting: 8-mer, flanks averaged, mean of 2 arrays, mostly near background
Residues (chain): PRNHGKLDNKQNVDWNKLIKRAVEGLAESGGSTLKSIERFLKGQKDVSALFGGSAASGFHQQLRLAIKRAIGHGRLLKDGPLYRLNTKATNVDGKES
Strand | E-score
CTAGGTTA | -0.156
AATTGCCG | 0.0161
AATCATTC | 0.0299
ATGGATCC | -0.0671
CTCGCTTA | 0.0391
CGGAGCCG | 0.251
GCGGGCTA | 0.0962
GACAGTGA | -0.0449
CGATACTA | 0.0681
GCTGATGA | -0.0226
AAGTGGAG | 0.0427
CAGTGCGC | -0.0119
CCAGTTCG | 0.208
ACCAGCTA | -0.0147
TCTCGGCA | 0.0702
ACGGTTTC | -0.106
CGACGAGA | -0.0351

Set 5 — target: CCNF, cyclin fold, Cln2 fusion (human); method: yeast growth competition, sequencing; medium: yeast; setting: strong parent motif; relative to: not given; reading: higher = stronger binding
Starting sequence: CUX1 docking peptide (human); SRIRRELFIEEIQ
Variant | normalised enrichment score
SRIRRELFIEEIA [Q13A] | 6.07
SRIRREAFIEEIQ [L7A] | 0.533
SRIRRELFAEEIQ [I9A] | 6.96
SRIRRELFIEAIQ [E11A] | 5.77
SRIRAELFIEEIQ [R5A] | -0.247
SRIARELFIEEIQ [R4A] | 4.81
SRIRKELFIEEIQ [R5K] | 2.29

Excerpt of the above (set 4):
Strand | E-score
CTAGGTTA | -0.156
AATTGCCG | 0.0161
AATCATTC | 0.0299
ATGGATCC | -0.0671
CTCGCTTA | 0.0391
CGGAGCCG | 0.251
GCGGGCTA | 0.0962
